Measured values from different studies.
Each line is one published result; not all experiments were run side by side. ± marks the error that the study gave. Converted amounts (≈) assume the structure as drawn. Where no end group is shown, it is not given here.

Substance	organism	assay	system	setting	how to read	endpoint	result
CCCCCCCCOc1c(OC)cc(NC(C)CCCNC(=O)C(N)CCSC)c2nc(C(C)(C)C)ccc12 (centres unmarked)	Staphylococcus aureus	microbial killing	ATCC33591 MRSA	drug-resistant strain		MBC	20 µg/mL (≈ 34.8 µM)
COC(=O)c1c[nH]c2ccc(CN3CCN(c4ccccc4)CC3)cc2c1=O	Plasmodium berghei		HepG2, liver stage	44 h		EC50	85 to 90 nM
CCCCCOc1c(OC)cc(NC(C)CCCNC(=O)C(N)CC(C)C)c2nc(C(C)(C)C)ccc12 (centres unmarked)	Staphylococcus aureus	microbial growth	ATCC33591 MRSA	drug-resistant strain		IC50	3.57 µg/mL (≈ 6.94 µM)
C=CCc1ccc(OC(=O)c2ccc([N+](=O)[O-])cc2)c(OC)c1	Spodoptera frugiperda	insecticidal activity	larvae	topical		LD50	2030 mg/kg
CP(=O)(O)CCC(N)C(=O)O (centres unmarked)	Chenopodium album			125 g/ha, 13 days, CHEAL, post-emergence spray	reference: untreated (0%), complete kill (100%)	herbicidal activity	70%
LSTFFRLFNGRRRRSVQWCA	Streptococcus gordonii	OD600	peptide, ATCC 10558, 4 h single-species biofilm	128 µg/ml, 5 min exposure, OD600 read over 5 h		biofilm growth	no effect
CC(=NNC(=O)CN1c2c(-c3ccccc3)n[nH]c2-c2ccccc2S1(=O)=O)c1sc(N)nc1C	HIV-1	viral replication	PBMC			EC90	> 100000 nM
CC(=O)OC[C@]12Oc3ccc(-c4ccc5c(c4O)C(=O)C4=C(O)C[C@@H](C)[C@@H](OC(C)=O)[C@@]4(COC(C)=O)O5)c(O)c3C(=O)C1=C(O)C[C@@H](C)[C@H]2OC(C)=O	Phyllosticta citricarpa		PDA plates	10000 µg/mL, 504 h		mycelial growth	3.3 ± 0.2 cm
DVDHVFLRF-NH2 (C-amide)	Drosophila melanogaster	heart rate	adult heart	40 nL injected, 1 µM, 10 min	reference: DMS	inhibition	86%
CCCCCCCOc1c(OC)cc(NC(C)CCCNC(=O)C(N)Cc2ccccc2)c2nc(C(C)(C)C)ccc12 (centres unmarked)	Staphylococcus aureus	microbial killing	ATCC33591 MRSA	drug-resistant strain		MBC	20 µg/mL (≈ 34.7 µM)
CC[C@H](C)[C@H](NC(=O)[C@H](CCCCN)NC(=O)[C@H](CCC(=O)O)NC(=O)[C@H](CCCCN)NC(=O)[C@H](CO)NC(=O)[C@H](CCCCN)NC(=O)[C@H](CCCNC(=N)N)NC(=O)[C@H](Cc1ccccc1)NC(=O)[C@H](Cc1ccccc1)NC(=O)[C@H](CC(=O)O)NC(=O)CNC(=O)[C@H](CC(C)C)NC(=O)[C@@H](N)CC(C)C)C(=O)NCC(=O)N[C@@H](CCCCN)C(=O)N[C@@H](CCC(=O)O)C(=O)N[C@@H](Cc1ccccc1)C(=O)N[C@@H](CCCCN)C(=O)N[C@@H](CCCNC(=N)N)C(=O)N[C@H](C(=O)N[C@H](C(=O)N[C@@H](CCC(N)=O)C(=O)N[C@@H](CCCNC(=N)N)C(=O)N[C@H](C(=O)N[C@@H](CCCCN)C(=O)N[C@@H](CC(=O)O)C(=O)N[C@@H](Cc1ccccc1)C(=O)N[C@@H](CC(C)C)C(=O)N[C@@H](CCCNC(=N)N)C(=O)N[C@@H](CC(N)=O)C(=O)N[C@@H](CC(C)C)C(=O)N[C@H](C(=O)N1CCC[C@H]1C(=O)N[C@@H](CCCNC(=N)N)C(=O)N[C@H](C(=O)N[C@@H](CCC(=O)O)C(=O)N[C@@H](CO)C(=O)O)[C@@H](C)O)C(C)C)[C@@H](C)CC)C(C)C)[C@@H](C)CC	Staphylococcus aureus		JE2 SAUSA300_1089 lspA transposon mutant	12.5% TSB	reference: wild type over mutant	MIC ratio	2 fold
Cc1ccccc1-c1nc(CN2CCC(C(=O)NCCC3=CCCCC3)CC2)c(C)o1	Hepatitis C virus	HCV infection, Gaussia luciferase reporter	Huh7.5.1 reporter cells		reference: 10 µM cyclosporin A, DMSO, negative means inhibition	maximal response	-73.5%
C[C@H]1c2cccc(O)c2C(=O)C2=C(O)[C@]3(O)C(=O)C(C(N)=O)=C(O)[C@@H](N(C)C)[C@@H]3[C@@H](O)[C@@H]21	Borreliella garinii	in vitro BBB model crossing		0.11 µg/mL, 5 h, added: 4.1 µM peptide		survival	24.9%
SSASAW	rhesus rotavirus	viral replication	peptide, mouse cholangiocytes	concentration not given, 18 h, 37 °C		viral yield	no effect

A few entries again:
Substance	organism	assay	system	setting	how to read	endpoint	result
C[C@H]1c2cccc(O)c2C(=O)C2=C(O)[C@]3(O)C(=O)C(C(N)=O)=C(O)[C@@H](N(C)C)[C@@H]3[C@@H](O)[C@@H]21	Borreliella garinii	in vitro BBB model crossing		0.11 µg/mL, 5 h, added: 4.1 µM peptide		survival	24.9%
